Measured values pooled from the literature.
Parts stem from different laboratories: compare values within a part only.

Study 1 — read-out: enzyme activity; mode: inhibitor; concentration: 20 µM; notes: hit confirmation, with DTT
Target: Replicase polyprotein 1ab, main protease (rep, Severe acute respiratory syndrome coronavirus 2, UniProt P0DTD1)
SMILES | inhibition
CC[N+](C)(CC)CCC[n+]1c(-c2ccccc2)c2cc(N)ccc2c2ccc(N)cc21 | 56%
CNS(=O)(=O)C[C@H]1CC[C@H](N(C)c2ncnc3[nH]ccc23)CC1 | 81.2%
Cc1ccc(S(=O)(=O)/C=C/C#N)cc1 | -12.5%
O=C1c2c(O)cccc2Cc2cccc(O)c21 | 23.7%
C[n+]1c2cc(N)ccc2cc2ccc(N)cc21 | -1.1%

Study 2 — read-out: enzyme activity; mode: inhibitor; concentration: 20 µM
Target: Replicase polyprotein 1ab, polymerase (rep, Severe acute respiratory syndrome coronavirus 2, UniProt P0DTD1)
SMILES | inhibition
COc1cc2c(cc1OCCCN1CCCC1)N=C(N)C21CCC1 | 1.25%
CC[C@H](C)[C@@H]1NC(=O)[C@H](Cc2ccc(O)cc2)NC(=O)[C@@H](N)CSSC[C@@H](C(=O)N2CCC[C@H]2C(=O)N[C@@H](CC(C)C)C(=O)NCC(N)=O)NC(=O)[C@H](CC(N)=O)NC(=O)[C@H](CCC(N)=O)NC1=O | -0.48%
Cc1cccc(Oc2cnc(=O)[nH]c2)c1 | 2.53%
C/C=C(/C)C(=O)O[C@H]1C(C)=C[C@]23C(=O)[C@@H](C=C(CO)[C@@H](O)[C@]12O)[C@H]1[C@@H](C[C@H]3C)C1(C)C | -2.74%
Cc1ccccc1-n1c(CF)nc2ccc(N)cc2c1=O | 2.05%
C[C@]12CC[C@H](O)C[C@H]1CC[C@@H]1[C@@H]2CC[C@]2(C)[C@@H](C3=CC(=O)OC3)CC[C@]12O | 1.99%
Cc1cc(Nc2ccc(NC(=O)c3ccc(Nc4ccnc5ccccc45)cc3)cc2)nc(N)n1 | 27.8%
O=C(Nc1ccncc1)C(=O)c1cn(Cc2ccc(Cl)cc2)c2ccccc12 | -1.04%
CCNCCS(=O)(=O)NC[C@@]1(c2ccccc2)SC(NC(=O)C(C)(C)C)=NN1C(=O)C(C)(C)C | -3.8%
CCOC(=O)/C=C(C)/C=C/C=C(C)/C=C/c1c(C)cc(OC)c(C)c1C | -8.25%
CC(C)N(C[C@H]1O[C@@H](n2cnc3c(N)ncnc32)[C@H](O)[C@@H]1O)[C@H]1C[C@@H](CCc2nc3cc(C(C)(C)C)ccc3[nH]2)C1 | -7.27%

Study 3 — cell line: HEK-293T; read-out: pseudovirus infection; method: FDA-approved drug library screen; organism: VSV pseudotyped with SARS-CoV-2 spike; concentration: 10 µM; time: 16 h; baseline: vehicle-treated
Compound | GFP-positive cells
CC1=C(C/C=C(\C)CCC[C@H](C)CCC[C@H](C)CCCC(C)C)C(=O)c2ccccc2C1=O | 82.6%
CC(=O)c1ccc(S(=O)(=O)NC(=O)NC2CCCCC2)cc1 | 83.5%
O=C1CN2Cc3c(ccc(Cl)c3Cl)N=C2N1 | 87.1%

Study 4 — method: protein-binding microarray; form: double-stranded DNA, one strand shown; medium: in vitro; concentration: 940 nM top; notes: 60-bp whole probe; added: salmon DNA 0.4 mg/ml; baseline: random background probes; reading: higher = stronger binding; shared flanks, not repeated: GCCTAGCAC … GTCTTGATTCGCTTGACGCTGCTG
Target: Interferon regulatory factor 5, full length, phosphomimetic (IRF5, Homo sapiens, UniProt Q13568-2, residues 1-514, S451D/S453D/S456D/S462D)
Sequence | fitted relative affinity [z-score]
GACGGTCTCGGACTGGGGACGTGCTAG | 0.747
TCAAACTTCGGCCTCTAACTGTGCTAG | 0.327
TCAAATTCTCTTTTCACACTGTGCTAG | 1.13
CATCTCGGGCCGCCGGGCCGGTGCTAG | -0.218
CTGCGGTGAGTGCGTTATCGGTGCTAG | -0.437
GACGAACTGGGGACTGTAGACGTGCTA | -0.0205
TTAGGTTTCGAATTTCGGTTAGTGCTA | 7.01
TTAGGTATCGGTCTCGGTCAGTGCTAG | 10.2

For quick reference, copied from above (study 4):
Sequence | fitted relative affinity [z-score]
GACGAACTGGGGACTGTAGACGTGCTA | -0.0205
TTAGGTTTCGAATTTCGGTTAGTGCTA | 7.01
TTAGGTATCGGTCTCGGTCAGTGCTAG | 10.2
